Experimental data pooled from the literature.
Lines come from different studies, so protocols differ. Several values in a cell are separate wells, animals, samples, runs or records. ± marks the error that the study gave.

Compound	test	test system	setting	scale	endpoint	result
O=C(O)CCCOc1ccc([18F])cc1-c1cc(-c2ccccc2C(F)(F)F)n(-c2ccccc2)n1		mouse, large intestine	intravenous, dose not given, 180 min		tissue uptake	3.33 ± 0.5 %ID/g
O=C(Nc1cnccc1-c1ccc([18F])cc1)c1ccnc(NC(=O)C2CC2)c1	ex vivo gamma counting	GSK-3β transgenic mice, early-stage, left kidney	intravenous, 120 min, with: tariquidar 15 mg/kg iv		mean SUV	0.83
CN1CCC[C@]1(C)/C=C/S(=O)(=O)NC(=O)Nc1c2c(cc3c1C(O)CC3)CCC2 (stereo partly shown)		human, plasma	oral, 50 mg twice daily of parent drug, day 14, metabolite of dosed drug		AUC(0-inf)	316000 ng·h/mL
COc1cccc(OC)c1-c1cc(C(=O)NC2(C(=O)O)C3CC4CC(C3)CC2C4)nn1-c1ccc(C(=O)N(C)CCOCCOCCN(C)C(=O)[C@H](CCCCNC(=O)[C@H](CC(C)C)NC(=O)C2OC2C(=O)O)NC(=O)CN2CCN(CC(=O)[O-])CCN(CC(=O)[O-])CCN(CC(=O)[O-])CC2)cc1C(C)C.[177Lu+3] (mixture of isomers)		mouse, HT-29 xenograft	168 h post injection, biodistribution	reference: tumour over blood uptake	tumour-to-blood ratio	3.57
Fc1ccc(OCC2CN(Cc3ncc4ccccn34)CCC2(F)F)cc1F (stereo not shown)	equilibrium dialysis	human plasma			fu	0.0055
COC1C=COC2(C)Oc3c(C)c(O)c4c(c3C2=O)C2=NC3(CCN(CC(C)C)CC3)NC2=C(NC(=O)C(C)=CC=CC(C)C(O)C(C)C(O)C(C)C(OC(=O)Nc2cnccn2)C1C)C4=O (stereo not shown)		CD-1 mouse, plasma	oral, dose not given, efficacy dose		fAUC/MIC ratio	173
CC(=O)N[C@H](CC(=O)O)C(=O)N[C@H](Cc1c[nH]c2ccccc12)C(=O)N[C@H](Cc1ccccc1)C(=O)N[C@H](CCCCN)C(=O)N[C@H](C)C(=O)N[C@H](Cc1ccccc1)C(=O)N[C@H](Cc1ccc(O)cc1)C(=O)N[C@H](CC(=O)O)C(=O)N[C@H](CCCCN)C(=O)N[C@@H](C(=O)N[C@H](C)C(=O)N[C@H](CCC(=O)O)C(=O)N[C@H](CCCCN)C(=O)N[C@H](Cc1ccccc1)C(=O)N[C@H](CCCCN)C(=O)N[C@H](CCC(=O)O)C(=O)N[C@H](C)C(=O)N[C@H](Cc1ccccc1)C(N)=O)C(C)C		high-risk statin-treated subjects with CHD, plasma	oral, dose not given, median, doses pooled		AUC(0-t)	27.2 ng·h/mL
C=C[C@]1(C)C[C@@H](OC(=O)CSc2ccc(NC(=O)c3ccco3)cc2)[C@]2(C)[C@H](C)CC[C@]3(CCC(=O)[C@H]32)[C@@H](C)[C@@H]1O		M. gallisepticum-infected chickens, plasma	intramuscular, 40 mg/kg single dose		elimination half-life	3.61 h
C/C(N)=N/C(=N\S(=O)(=O)c1ccc(C(F)(F)F)cc1)N1C[C@H](c2ccccc2)C(c2ccc(Cl)cc2)=N1		simulated gastric fluid	1 µM, pH 1.2, 37 °C		t1/2	> 2 h
OCCn1nc(-c2ccccc2)c2c(Cl)c(-c3ccccc3)nnc21		mouse juvenile P20, plasma	intraperitoneal, 130 mg/kg		AUC	7.41 µM·h
COc1ccc(CCC(C)N2CCc3cc(O[11CH3])c(OC)cc3C2)cc1 (racemic)		plasma	injection, 30 min	reference: radioactivity	parent compound fraction	12.5 ± 2.9%
CCN(CC)c1ccc2c(c1)O[B-]1(c3ccccc3C#N)OC(=O)C(c3ccccc3)=N[N+]1=C2 (stereo not shown)		toluene			fluorescence quantum yield	0.59
O=C(NS(=O)(=O)c1cccs1)c1cc2ccccc2n1Cc1ccc(Br)c2ccccc12		rats	intravenous bolus, dose not given, 24 h		plasma concentration	not detected
CC[C@H](C)[C@@H]1NC(=O)[C@H](Cc2ccc(O)cc2)NC(=O)CCCSC[C@@H](C(=O)N(CC(=O)N[C@@H](CC(C)C)C(=O)NCC(N)=O)Cc2ccc(F)cc2)NC(=O)[C@H](CC(N)=O)NC(=O)[C@H](CCC(N)=O)NC1=O		human	intranasal, 300 µg single dose		drug-related headache	17%
C=C(NC(=O)c1csc(-c2nc3c(cc2O)-c2nc(cs2)C(=O)NC(C(C)O)C(=O)NC(=C(C)OC)c2nc(cs2)C(=O)NC2c4nc(cs4)C(=O)NC(COC(=O)c4c5c6c(cccc6n4O)COC(=O)C(OC4CC(C)(O)C(N(C)C)C(C)O4)C2OC5)c2nc-3cs2)n1)C(N)=O (stereo not shown)		male Sprague-Dawley rat, plasma	intravenous, 6 mg/kg, single dose, infusion		half-life	5.95 h
O=C(NCc1cccc(Cl)c1)c1ccc(C2CCCCC2)cc1	hepatocyte stability	cryopreserved rat hepatocytes	1 µM		hepatic clearance	43 mL/min/kg
C=C1C[C@]2(C(=O)OC)C=C(C(=O)Nc3cccc(C(=O)Nc4ccc(Nc5nccc(-c6cccnc6)n5)c(C)c4)c3)C(=O)[C@H]1C2		Wistar rat, male, plasma	10 µM, 10 min		compound remaining	19.6%
COc1cccc(OC)c1-c1cc(C(=O)NC2(C(=O)O)C3CC4CC(C3)CC2C4)nn1-c1ccc(C(=O)NCCNC(=O)[C@H](CCCCNC(=O)[C@H](CC(C)C)NC(=O)C2OC2C(=O)O)NC(=O)CN2CCN(CC(=O)[O-])CCN(CC(=O)[O-])CCN(CC(=O)[O-])CC2)cc1C(C)C.[177Lu+3] (mixture of isomers)		mouse, HT-29 xenograft	168 h post injection, biodistribution	reference: tumour over kidney uptake	tumour-to-kidney ratio	2.72
CC(C)=CCc1cc(C(=O)/C=C/c2ccc(O)cc2)c(O)cc1O		human liver microsomes	formation of oxidised bavachin metabolite, with: NADPH		CLint	16.4 µL/min/mg
CC[C@H](C)[C@H](NC(=O)[C@@H](NC(=O)[C@H](CCCCN)NC(=O)[C@@H](NC(=O)[C@@H]1CCCN1[C@@H]1CN(C(=O)[C@@H](NC(=O)[C@@H](NC(=O)[C@@H](NC(=O)[C@@H](NC(=O)[C@@H](NC(=O)[C@@H](N)CCCCN)C(C)C)C(C)C)C(C)C)[C@@H](C)CC)[C@@H](C)O)CC[C@H]1NS(=O)(=O)c1ccc(C)cc1)[C@@H](C)O)C(C)C)C(=O)N[C@@H](CC(C)C)C(=O)N[C@@H](Cc1c[nH]cn1)C(N)=O	circular dichroism	methanol	125 µM, 20 °C		helix content	0%
O=C(CN1CCCCC1)Nc1ccc([C@H]2[C@@H](F)[C@@H](F)C[C@@H](F)[C@H]2F)cc1		dog liver microsomes	1 µM		hepatic clearance	23 mL/min/kg
CCCCCCCOc1ccc(CC[C@](N)(CO)COP(=O)(O)O)cc1C(F)(F)F		healthy men, plasma	oral, 0.5 mg once daily, day 21, fed state		AUCτ	154 ng·h/mL
CCn1cc(-c2cc(Cn3ccnc3)cc3c2CCN([C@H](c2cc(OC)ccn2)C2CC2)C3=O)c(C(F)(F)F)n1		CD-1 mouse, male, plasma	oral, 10 mg/kg		AUC extrapolated	0.6%
O=C(N1CCCCC1)C12CC(c3ccccc3)(C1)C2(F)F	metabolic stability	human, liver microsomes	2 µM, 40 min, pH 7.4		compound remaining	73%
O=C(Nc1cnccc1-c1ccc([18F])nc1)c1ccnc(NC(=O)C2CC2)c1		mice, transgenic, GSK-3β, early-stage, hippocampus	intravenous, dose not given, 120 min		SUV	0.02

Compound	test	test system	setting	scale	endpoint	result
N#CCNC(=O)c1ccc([C@H]2[C@@H](F)[C@@H](F)C[C@@H](F)[C@H]2F)cc1	hepatocyte stability	cryopreserved mouse hepatocytes	1 µM		hepatic clearance	24 mL/min/kg
C=CC(=O)Nc1cc(Nc2nccc(-c3c[nH]c4ccccc34)n2)c(OC)cc1N(C)CCN(C)C	storage stability	human dried blood spots	24 h, -80 °C, medium QC level		recovery	88.7%
Cc1cc(-c2ccc(C(=O)[C@@H]3CCCC[C@H]3C(=O)Nc3cnn4c3C(=O)NCC4)cc2)[nH]n1		human, urine	oral, 200 mg, 192-216 h	reference: dose	recovery of radioactivity per interval	< 0.01%
Cc1nn(-c2nc3c(F)cc(F)cc3s2)c(O)c1C(c1ccc(C(F)(F)F)cc1)c1c(C)nn(-c2nc3c(F)cc(F)cc3s2)c1O		ICR mouse, plasma	intravenous, 5 mg/kg		Tlast	24 h
CN(C(=O)C(C)(C)c1cc(C(F)(F)F)cc(C(F)(F)F)c1)c1cnc(N2CC(CO)NCC2CO)cc1-c1ccc(F)cc1CO (stereo not shown)		healthy male human	oral, 120 mg, up to 480 h cumulative	reference: dose	amount excreted in faeces	1.71% and ~2%
O=C(O)Cc1ccccc1Nc1c(Cl)cccc1Cl		human liver microsomes	1 nM		hepatic intrinsic clearance	114 mL/min/kg
CCN(CC)c1ccc2c(c1)O[B-]1(c3ccccc3)OC(=O)C(c3ccccc3)=N[N+]1=C2 (stereo not shown)		toluene			fluorescence emission maximum	509 nm
COC(=O)[C@@]1(C)C=C(C(=O)Nc2cccc(C(=O)Nc3ccc(Nc4nccc(-c5cccnc5)n4)c(C)c3)c2)C(=O)CC1		Wistar rat, male, plasma	1 µM, 20 min		compound remaining	36.6%
OC1(C(F)(F)F)CCN(c2nc(Nc3ccnc(C(F)(F)F)c3)nc(-c3cccc(C(F)(F)F)n3)n2)C1 (stereo not shown)		monkey, plasma	oral, 1 mg/kg		Cmax	255 ± 49.3 ng/mL
CCCNC(=O)[C@H]1O[C@@H]1C(=O)N[C@H](C(=O)N1CCC[C@H]1C(=O)OCC1=C2C(C)=CC(C)=[N+]2[B-](F)(F)n2c(C)cc(C)c21)[C@@H](C)CC	Nd:YAG laser irradiation	methanol	irradiation at 532 nm		photodecomposition quantum yield	0.19 ± 0.02%
OCCCN1CC[C@@H]2C[C@H]1c1cc(-c3ccc(C(F)(F)F)cc3)ccc12		plasma	ip, concentration not given		t1/2	21.7 h
CNC(=O)c1ccc([C@H]2[C@@H](F)[C@@H](F)C[C@@H](F)[C@H]2F)cc1	hepatocyte stability	cryopreserved mouse hepatocytes	1 µM		hepatic clearance	21 mL/min/kg
CCN(CC)c1ccc2c(c1)O[B-]1(c3ccccc3C#N)OC(=O)C(c3ccccc3)=N[N+]1=C2CC(C)C (stereo not shown)		toluene			fluorescence emission maximum	518 nm
CC(C)CC(=O)Nc1ccc(C2CCCCC2)cc1	liver microsome stability	cynomolgus liver microsomes	1 µM		hepatic clearance	39 mL/min/kg
COc1ccc2c(c1)CN(C(=O)CCN1CCC(Cc3ccccc3)CC1)CCS2		human plasma	750 ng/mL		fu	0.024
Cc1nc(N)nc2c1C(=O)N[C@@H](c1ccc(F)cc1-c1cccc(O[11CH3])n1)C2	ex vivo biodistribution	mice, MDA-MB-231 subcutaneous xenograft, bone	60 min post-injection, baseline, vehicle pre-treatment		tracer uptake	8.6 ± 0.9 %ID
O=C(CN1CCOCC1)Nc1ccc([C@H]2[C@@H](F)[C@@H](F)C[C@@H](F)[C@H]2F)cc1	hepatocyte stability	cryopreserved mouse hepatocytes	1 µM		hepatic clearance	21 mL/min/kg
COc1cccc(OC)c1-c1cc(C(=O)NC2(C(=O)O)C3CC4CC(C3)CC2C4)nn1-c1ccc(C(=O)N(C)CCCN(C)C(=O)[C@H](CCCCNC(=O)[C@H](CC(C)C)NC(=O)C2OC2C(=O)O)NC(=O)CN2CCN(CC(=O)[O-])CCN(CC(=O)[O-])CCN(CC(=O)[O-])CC2)cc1C(C)C.[177Lu+3] (mixture of isomers)		mouse, HT-29 xenograft	72 h post injection, biodistribution	reference: tumour over bone uptake	tumour-to-bone ratio	14.2
O=C(CN1CN(c2ccccc2)C2(CCN(C(=O)c3ccc4[nH]ncc4n3)CC2)C1=O)NCC(F)(F)F		mouse liver microsomes			CLint	120 µL/min/mg protein
O=C(NC1CCC(F)(F)CC1)C(c1cncnc1)N(C(=O)C(F)Cl)c1ccc(-c2cncs2)cc1 (stereo not shown)		human liver microsomes	concentration not given, pH 7.4		CLint	29.6 µL/min/mg
CN(C)C(=O)CNC(=O)c1ccc(C2CCCCC2)cc1	liver microsome stability	human liver microsomes	1 µM, without NADPH		hepatic clearance	7 mL/min/kg
COc1cccc(OC)c1-c1cc(C(=O)NC2(C(=O)O)C3CC4CC(C3)CC2C4)nn1-c1ccc(C(=O)N(C)CCOCCN(C)C(=O)[C@H](CCCCNC(=O)[C@H](CC(C)C)NC(=O)C2OC2C(=O)O)NC(=O)CN2CCN(CC(=O)[O-])CCN(CC(=O)[O-])CCN(CC(=O)[O-])CC2)cc1C(C)C.[177Lu+3] (mixture of isomers)		mouse, HT-29 xenograft	168 h post injection, biodistribution	reference: tumour over kidney uptake	tumour-to-kidney ratio	0.69
O=C(c1ccc([C@H]2[C@@H](F)[C@@H](F)C[C@@H](F)[C@H]2F)cc1)N1CCCC1	liver microsome stability	cynomolgus liver microsomes	1 µM		hepatic clearance	33 mL/min/kg
C=CC(=O)Nc1cc(Nc2nccc(-c3cn(C)c4ccccc34)n2)c(OC)cc1N(C)CCNC	storage stability	human dried blood spot	2 h, on ice, LQC level		recovery	104%

For quick reference, copied from above:
Compound	test	test system	setting	scale	endpoint	result
COC1C=COC2(C)Oc3c(C)c(O)c4c(c3C2=O)C2=NC3(CCN(CC(C)C)CC3)NC2=C(NC(=O)C(C)=CC=CC(C)C(O)C(C)C(O)C(C)C(OC(=O)Nc2cnccn2)C1C)C4=O (stereo not shown)		CD-1 mouse, plasma	oral, dose not given, efficacy dose		fAUC/MIC ratio	173
Fc1ccc(OCC2CN(Cc3ncc4ccccn34)CCC2(F)F)cc1F (stereo not shown)	equilibrium dialysis	human plasma			fu	0.0055
COc1ccc(CCC(C)N2CCc3cc(O[11CH3])c(OC)cc3C2)cc1 (racemic)		plasma	injection, 30 min	reference: radioactivity	parent compound fraction	12.5 ± 2.9%
CCN(CC)c1ccc2c(c1)O[B-]1(c3ccccc3C#N)OC(=O)C(c3ccccc3)=N[N+]1=C2CC(C)C (stereo not shown)		toluene			fluorescence emission maximum	518 nm
